Experimental data gathered from unrelated publications.
A part holds a random share of what one study measured.
UniProt Q9C0B0, sequence (30-357, looked up): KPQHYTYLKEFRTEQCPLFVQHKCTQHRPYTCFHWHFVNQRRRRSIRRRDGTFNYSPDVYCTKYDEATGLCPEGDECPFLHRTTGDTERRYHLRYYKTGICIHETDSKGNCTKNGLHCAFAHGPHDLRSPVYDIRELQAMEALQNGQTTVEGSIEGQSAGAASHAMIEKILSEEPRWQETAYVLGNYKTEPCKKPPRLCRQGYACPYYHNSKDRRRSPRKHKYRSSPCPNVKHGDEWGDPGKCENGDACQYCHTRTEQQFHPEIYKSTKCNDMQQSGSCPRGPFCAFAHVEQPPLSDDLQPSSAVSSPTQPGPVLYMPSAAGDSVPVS

Block 1
Target: Ras GTPase-activating protein-binding protein 1, C-terminal RGG region (G3BP1, Homo sapiens, UniProt Q13283)
UniProt Q13283, sequence (whole entry, looked up): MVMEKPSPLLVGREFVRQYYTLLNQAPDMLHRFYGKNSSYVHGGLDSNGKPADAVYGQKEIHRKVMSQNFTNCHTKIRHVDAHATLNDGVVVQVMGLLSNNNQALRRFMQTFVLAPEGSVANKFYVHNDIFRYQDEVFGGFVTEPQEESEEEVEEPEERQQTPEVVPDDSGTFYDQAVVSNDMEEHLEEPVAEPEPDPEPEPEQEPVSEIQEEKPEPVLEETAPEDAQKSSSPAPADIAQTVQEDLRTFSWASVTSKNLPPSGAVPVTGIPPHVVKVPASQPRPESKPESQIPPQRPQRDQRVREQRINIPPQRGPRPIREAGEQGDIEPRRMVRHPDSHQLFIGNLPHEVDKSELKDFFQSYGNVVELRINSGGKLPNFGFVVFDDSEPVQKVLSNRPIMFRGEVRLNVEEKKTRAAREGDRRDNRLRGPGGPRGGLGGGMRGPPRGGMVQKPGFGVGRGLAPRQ
Technique: RNA Bind-n-Seq
Molecule type: RNA
Sample: in vitro
Tested at: 1 µM
Setting: whole 134-nt RNA, ends assumed
Added: 150 mM KCl
Baseline: input library
Direction: higher = stronger binding
Measurement: log2 enrichment
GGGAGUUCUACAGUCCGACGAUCUGGGAGGUGGAUUUUGUUUAUUUUUUUAGCUCAUUUCCAGGGGUGGGAAUUUUUUUUUAAUAUGUGGCAUGAAUAAAGUUGUUUUUGAAAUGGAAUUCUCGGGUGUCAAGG: 3.28
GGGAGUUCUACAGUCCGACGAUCUGGGAGGUGGAUUUUGUUUAUUUUUUUAGCUCAUUUCCAGGGGUGGGAAUUUUUUUUUAAUAUGUGUCAUGAAUAAACUUGUUUUUGAAAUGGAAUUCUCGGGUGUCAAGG: 3.03
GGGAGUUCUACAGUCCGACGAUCGCAGGAAGUAAAAACAAAUGGAAAUGCUUCGGAUAGUGGCAGGGGUGGGCGUUGCUAAGGAAAGGGUGGGAUGGGAGUGGGUAAAGAGUUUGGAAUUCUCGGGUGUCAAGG: 1.57
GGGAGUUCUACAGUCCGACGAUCUGGCCCUUCCCCUGGAGCCAUGCUGGGCCCUAGCCCGGGUCCCUCGCCGGGCUCCGCCCACAGCAUGAUGGGGCCCAGCCCAGGGCCGCCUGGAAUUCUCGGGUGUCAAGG: -0.633
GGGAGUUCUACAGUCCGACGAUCAGUCCUGUGCUACACAUCGUAUGUACCGAAUCGGGCCCCGGGGCCCCGGGGCCCCGGAAAGUAUUAUGUUACGCCGUUCGGAUCUGCACUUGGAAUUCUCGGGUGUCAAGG: -2.35
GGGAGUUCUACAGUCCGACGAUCGUCCUGUGCUACACAUCGUAUGUACCGAAUCGGGGCCCCCGGGCCCCCGGGCCCCCGGAAAGUAUUAUGUUACGCCGUUCGGAUCUGCACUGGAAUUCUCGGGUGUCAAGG: -1.71
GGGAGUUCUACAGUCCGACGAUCCAAGUCCUGUGCUACACAUCGUAUGUACCGAAUCGGGGUGGGGAGGGGAAAGGGGAAAGUAUUAUGUUACGCCGUUCGGAUCUGCACUUCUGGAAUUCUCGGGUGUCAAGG: 3.07
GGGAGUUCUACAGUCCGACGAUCGUCCUGUGCUACACAUCGUAUGUACCGAAUCAAAUUUUUAAAUUUUUAAACCCCCAAAAAAGUAUUAUGUUACGCCGUUCGGAUCUGCACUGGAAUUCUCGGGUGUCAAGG: -0.521
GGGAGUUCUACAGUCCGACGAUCUUGCCACUCUAAAUUCAGAAGAGGAGAGCGACCCUCCAACCUACAAGGAUGCCUUCCCUCCACUUCCUGAGAAAGCUGCUUGCCUGGAAAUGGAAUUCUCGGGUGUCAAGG: -0.167
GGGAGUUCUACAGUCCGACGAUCCUCAAGUCCUGUGCUACACAUCGUAUGUACCGAAUCGGGUUGGUUGGUUGGGGAAAGUAUUAUGUUACGCCGUUCGGAUCUGCACUUCCAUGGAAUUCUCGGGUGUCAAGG: -0.815

Block 2
Target: Histone acetyltransferase KAT6A, both winged helices, GST fusion (KAT6A, Homo sapiens, UniProt Q92794, residues 1-181)
Technique: protein binding microarray
Molecule type: double-stranded DNA, one strand shown
Sample: in vitro
Tested at: not given
Setting: 8-mer, flanks averaged, mean of 2 arrays, mostly near background
Baseline: not given
Direction: higher = stronger binding
Measurement: E-score
Target sequence (chain): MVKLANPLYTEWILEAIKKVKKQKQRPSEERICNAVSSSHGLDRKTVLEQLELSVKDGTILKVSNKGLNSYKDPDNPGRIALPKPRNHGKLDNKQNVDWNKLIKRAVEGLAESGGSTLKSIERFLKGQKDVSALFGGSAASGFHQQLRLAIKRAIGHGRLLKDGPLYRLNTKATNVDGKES
CACGTTAC: 0.00558
ACCGCGTG: 0.245
GTAACGCA: 0.14
GGCGGCCC: 0.174
CGAGGGAG: -0.136
ACCCCCCT: -0.245
GTAGGTAA: -0.123
CACGGCGA: 0.336
ACGAGTGC: -0.063
AGTTTATA: -0.0313
TGGCACCA: -0.175
AGTAAGGC: -0.0635
GTCTACGA: -0.114
CGCGGGTC: 0.345
CTGAGTAA: -0.182
ATACGTAA: 0.0243

Block 3
Target: POU, POU domain (Salpingoeca helianthica)
Technique: Spec-seq
Molecule type: double-stranded DNA, one strand shown
Sample: in vitro
Tested at: not given
Setting: whole probe, mean of replicates
Baseline: not given
Direction: lower = stronger binding
Measurement: relative binding energy
All sequences stand within: GAGTCGTCTCGTCAGCAC … CCGTAGAGCACTCAGGTC
Residues (chain): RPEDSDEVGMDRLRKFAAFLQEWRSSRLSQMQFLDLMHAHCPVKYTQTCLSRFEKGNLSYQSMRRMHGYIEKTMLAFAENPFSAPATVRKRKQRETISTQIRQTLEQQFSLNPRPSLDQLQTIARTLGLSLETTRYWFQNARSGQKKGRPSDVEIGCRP
ATGCACCC: 1.81 ln ratio
TGGGTAAT: 0.68 ln ratio
ATACGTAT: 1.2 ln ratio
ATCGATAT: 0.823 ln ratio
ATGACGAT: 1.5 ln ratio
ATAATCAT: -0.0241 ln ratio
ATGTTGAT: 1.15 ln ratio
ATGCATCG: 1.02 ln ratio
ATGCTACT: 1.22 ln ratio
ATGCTGCG: 1.22 ln ratio
ATTTAAAT: -0.221 ln ratio
ATGCTAGA: 1.35 ln ratio
ATGCGCTT: 1.19 ln ratio
ATGCTTTA: 0.872 ln ratio
ATGCGCAT: 1.24 ln ratio
CCCTTAAT: 0.547 ln ratio
ATGCTGGA: 1.43 ln ratio
TCGCTAAT: 0.581 ln ratio
ATACCAAT: 1.11 ln ratio

Block 4
Target: PABPC1L2, full length, GST fusion (mouse, UniProt A0ABA7IW68)
Technique: RNAcompete
Molecule type: RNA
Sample: in vitro
Tested at: 20 nM
Setting: 7-mer, probes averaged, single round
Baseline: mean of 7-mers
Direction: higher = stronger binding
Measurement: 7-mer Z-score
Residues (chain): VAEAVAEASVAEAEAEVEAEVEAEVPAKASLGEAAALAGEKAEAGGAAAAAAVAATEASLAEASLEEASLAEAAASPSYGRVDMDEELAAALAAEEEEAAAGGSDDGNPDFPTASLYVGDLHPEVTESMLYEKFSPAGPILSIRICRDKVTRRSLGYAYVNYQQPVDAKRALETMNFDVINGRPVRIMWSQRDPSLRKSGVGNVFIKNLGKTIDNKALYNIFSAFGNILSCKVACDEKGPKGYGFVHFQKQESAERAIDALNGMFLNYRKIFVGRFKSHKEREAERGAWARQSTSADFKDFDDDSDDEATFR
UAGCAUG: -0.0681
GUUACGA: 0.0478
UAGAAUU: -0.124
CAGCCUC: -0.316
UAAUGCA: 0.00254
GACGCCA: -0.177
AGACAGC: -0.132
AGGAGUG: 0.12
UGCUACU: -0.255
UAGUCCC: -0.364
AGCGCCC: -0.219
GGAUCUA: -0.0446
CCAUACA: -0.0192
AUCCGGG: 0.157
UCCCGUC: -0.527
CCAAUGC: -0.235

Block 5
Target: Interferon regulatory factor 5, full length, phosphomimetic (IRF5, Homo sapiens, UniProt Q13568-2, residues 1-514, K96S/S451D/S453D/S456D/S462D)
Technique: protein-binding microarray
Molecule type: double-stranded DNA, one strand shown
Sample: in vitro
Tested at: 250 nM
Setting: 60-bp whole probe
Added: salmon DNA 0.4 mg/ml
Baseline: random background probes
Direction: higher = stronger binding
Measurement: log fluorescence
All sequences stand within: GCCTAGCAC … GTCTTGATTCGCTTGACGCTGCTG
GACGCTATCAGACTGGAGACGTGCTAG: 0.0692 z-score
TCATGTTTCTTCTGCTGACTGTGCTAG: 1.19 z-score
GACGGCTTCGGTCTCGGGACGTGCTAG: 0.195 z-score
TCATCTCTGGTCTTTGTACTGTGCTAG: 0.551 z-score
TCACTTTTTTTTCTTTAACTGTGCTAG: 1.41 z-score
TTTCTTTTCTTTTCTTTTTTGTGCTAG: 6.54 z-score
TCATCATTTTCTCTGTTACTGTGCTAG: 1.55 z-score
GTCGAACTGAGTTTCGAGACGTGCTAG: 5.3 z-score
TCATGCTTTCTTTTATGACTGTGCTAG: 1.12 z-score
GACGGTTTCAGTCTCGGGACGTGCTAG: 3.07 z-score
TCAGGCTTCATGTTGCTCACTGTGCTA: -0.121 z-score
TTAGAACGGGGGTTTCGATTAGTGCTA: 7.21 z-score
GACTATCTCAGACTGGAGACGTGCTAG: -0.164 z-score
TCATCTTCATGTTTTTTACTGTGCTAG: 0.79 z-score
TTAGTTTTCCTTATCCTTTAGTGCTAG: 1.93 z-score
GACGATATCTGACTGGAGACGTGCTAG: 0.294 z-score

Other studies, line by line
GGGAGUUCUACAGUCCGACGAUCGGGCGGCCGGUGGGGGAAUCCCCUGCCUUGGCCUUGCCUCCCCUUCCUGCCACGUGCCCCCCGUUAUUUUUUUUUUUUUAACACCAUGUGAUUAAGGUCGGCGCUGCCUCCCCCGACCCACAACAGAGGAUUGAGCAUCA  bound/input enrichment (RING finger protein unkempt homolog, zinc fingers 1-6, SBP tag (UNK, Homo sapiens, UniProt Q9C0B0, residues 30-357); RNA Bind-n-Seq; RNA, in vitro; 100 nM, RNA with constant flanks, ends assumed; baseline: input RNA pool, higher = stronger binding): 1.3 ratio
